{"data": "Results from different studies", "note": "Each line is one published result; not all experiments were run side by side. Numbers after ± are the reported error."}
{"Compound": "COc1ccc(NC(=O)Cn2c(=O)c3ccccc3n(CC(=O)Nc3cc([125I])c(OC)cc3OC)c2=O)cc1", "system": "rat, kidney", "setting": "intravenous, 30 min", "quantity": "tracer uptake", "result": "0.15 %ID/g"}
{"Compound": "CCNc1cc2[o+]c3cc(NCC)c(C)cc3c(-c3ccccc3C(=O)OCCOCC[18F])c2cc1C", "system": "rat", "setting": "15 min", "scale": "baseline: heart over lung", "quantity": "tissue uptake ratio", "result": 1.2}
{"Compound": "CCCC[C@H]1C(=O)N(C)[C@@H](CCCC)C(=O)N[C@@H](CCCNC(=O)CN2CCN(CC(=O)O)CCN(CC(=O)O)CCN(CC(=O)O)CC2)C(=O)N[C@H](C(=O)NCC(N)=O)CSCC(=O)N[C@@H](Cc2ccc(O)cc2)C(=O)N(C)[C@@H](C)C(=O)N[C@@H](CC(N)=O)C(=O)N2CCC[C@H]2C(=O)N[C@@H](Cc2c[nH]cn2)C(=O)N[C@@H](CC(C)C)C(=O)N(C)CC(=O)N[C@@H](Cc2c[nH]c3ccccc23)C(=O)N[C@@H](CO)C(=O)N[C@@H](Cc2c[nH]c3ccccc23)C(=O)N1C [gallium-68 labelled]", "test": "static PET", "system": "NOD/SCID mice, CHO-hPD-L1 xenograft, CHO-hPD-L1 tumour", "setting": "intravenous, 1 h post injection, after five atezolizumab treatments, with: atezolizumab 10 mg/kg", "quantity": "tumour uptake", "result": "3.16 ± 0.15 %ID/g"}
{"Compound": "[2H]C([2H])([2H])C([2H])([2H])C([2H])([2H])OC(C(=O)OC1CCNCC1)(c1ccccc1)c1ccccc1", "test": "refers to: otitis media", "system": "healthy Japanese male", "setting": "oral, 12 mg once daily, 16 days", "quantity": "adverse events", "result": "14.3%"}
{"Compound": "O=c1cc(-c2ccccc2)oc2c(Br)c(O)c(O)c(O)c12", "system": "C57BL/6 mouse, plasma", "setting": "intravenous, 10 mg/kg", "quantity": "time to fall to EC99.9", "result": "~30 min"}
{"Compound": "COc1cc2c3c(c4cc(OC)c(OC)cc4c2cc1OC)CN1CCCCC1C3 (centres unmarked)", "system": "swine cells", "setting": "24 (unit not given)", "quantity": "CC50", "result": "43.5 ± 7.4 µM"}
{"Compound": "CC(C)[C@@H]1NC(=O)[C@H](Cc2ccccc2)NC(=O)[C@H](Cc2ccc(O)cc2)NC(=O)CCSSC[C@@H](C(=O)N2CCC[C@H]2C(=O)N[C@H](CCCNC(=N)N)C(=O)NCC(N)=O)NC(=O)[C@H](CCC(N)=O)NC1=O", "system": "Wistar rat, blood", "setting": "intravenous, 10 µg/kg single dose, 72 h", "quantity": "ALT", "result": "19.6 ± 3.1 IU/L"}
{"Compound": "COc1cc(NC(=O)C(=O)c2c(C)n(Cc3ccc(Cl)cc3)c3ccc(C)cc23)ccn1", "system": "female cynomolgus monkey, plasma", "setting": "oral, 10 mg/kg", "quantity": "AUC(0-inf)", "result": "3660 ng·h/mL"}
{"Compound": "CCCCCCCCCCCCC(=O)O.O=C1CCCC2C3CCCN4CCCC(CN12)C34 (centres unmarked)", "system": "water", "setting": "concentration not given, 308.15 K", "quantity": "critical micelle concentration", "result": "0.00251 mol/kg"}
{"Compound": "CN(C)C(CNC(=O)Nc1cc(C(F)(F)F)ccc1N1CCOCC1)c1ccncc1 (centres unmarked)", "system": "mouse, serum", "setting": "intraperitoneal, 120 mg/kg single dose", "quantity": "serum albumin", "result": "2.7 g/dL"}
{"Compound": "O=C(c1ccc(F)cc1)C1CCN(C2Cc3c(cccc3OCC[18F])CC2O)CC1 (single isomer, unassigned; (-))", "system": "cynomolgus monkey, arterial plasma", "setting": "time not given, solvent extraction", "quantity": "extraction recovery", "result": "76 to 87%"}
{"note": "Excerpt of the above:"}
{"Compound": "CCCCCCCCCCCCC(=O)O.O=C1CCCC2C3CCCN4CCCC(CN12)C34 (centres unmarked)", "system": "water", "setting": "concentration not given, 308.15 K", "quantity": "critical micelle concentration", "result": "0.00251 mol/kg"}
